Published values of several laboratories.
Lines come from different studies, so protocols differ. Values joined by “and” are separate records of one study, mostly repeats; a detail may differ. Numbers after ± are the reported error.
Chain of UniProt O95835 (whole entry, looked up): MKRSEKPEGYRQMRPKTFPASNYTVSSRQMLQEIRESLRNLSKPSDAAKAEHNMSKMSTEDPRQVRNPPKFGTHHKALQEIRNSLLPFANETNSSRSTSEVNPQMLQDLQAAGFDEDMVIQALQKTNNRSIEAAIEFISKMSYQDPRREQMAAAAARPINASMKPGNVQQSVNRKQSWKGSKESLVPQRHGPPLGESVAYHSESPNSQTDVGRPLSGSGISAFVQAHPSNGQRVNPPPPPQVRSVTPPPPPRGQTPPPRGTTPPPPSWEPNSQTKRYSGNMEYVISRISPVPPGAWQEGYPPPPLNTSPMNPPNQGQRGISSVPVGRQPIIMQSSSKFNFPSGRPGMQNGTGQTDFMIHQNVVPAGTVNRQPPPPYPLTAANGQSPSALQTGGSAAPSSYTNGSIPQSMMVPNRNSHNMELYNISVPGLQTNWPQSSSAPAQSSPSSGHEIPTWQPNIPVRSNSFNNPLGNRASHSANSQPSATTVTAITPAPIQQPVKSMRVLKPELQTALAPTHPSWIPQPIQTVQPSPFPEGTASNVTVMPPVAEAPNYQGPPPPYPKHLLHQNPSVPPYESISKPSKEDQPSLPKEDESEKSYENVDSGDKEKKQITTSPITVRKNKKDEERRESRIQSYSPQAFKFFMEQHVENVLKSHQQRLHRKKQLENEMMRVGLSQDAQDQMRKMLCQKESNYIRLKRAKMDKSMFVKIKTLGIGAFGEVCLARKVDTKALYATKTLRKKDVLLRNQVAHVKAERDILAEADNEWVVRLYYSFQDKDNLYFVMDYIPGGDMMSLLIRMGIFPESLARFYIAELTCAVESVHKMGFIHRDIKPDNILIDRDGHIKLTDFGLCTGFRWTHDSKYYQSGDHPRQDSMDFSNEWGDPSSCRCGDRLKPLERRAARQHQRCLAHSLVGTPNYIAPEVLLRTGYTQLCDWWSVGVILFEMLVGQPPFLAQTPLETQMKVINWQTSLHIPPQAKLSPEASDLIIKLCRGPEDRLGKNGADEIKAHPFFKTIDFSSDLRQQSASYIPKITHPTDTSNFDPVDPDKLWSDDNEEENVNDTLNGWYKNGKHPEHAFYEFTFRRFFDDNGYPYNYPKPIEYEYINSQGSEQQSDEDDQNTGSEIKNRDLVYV
Chain of UniProt P16234 (whole entry, looked up): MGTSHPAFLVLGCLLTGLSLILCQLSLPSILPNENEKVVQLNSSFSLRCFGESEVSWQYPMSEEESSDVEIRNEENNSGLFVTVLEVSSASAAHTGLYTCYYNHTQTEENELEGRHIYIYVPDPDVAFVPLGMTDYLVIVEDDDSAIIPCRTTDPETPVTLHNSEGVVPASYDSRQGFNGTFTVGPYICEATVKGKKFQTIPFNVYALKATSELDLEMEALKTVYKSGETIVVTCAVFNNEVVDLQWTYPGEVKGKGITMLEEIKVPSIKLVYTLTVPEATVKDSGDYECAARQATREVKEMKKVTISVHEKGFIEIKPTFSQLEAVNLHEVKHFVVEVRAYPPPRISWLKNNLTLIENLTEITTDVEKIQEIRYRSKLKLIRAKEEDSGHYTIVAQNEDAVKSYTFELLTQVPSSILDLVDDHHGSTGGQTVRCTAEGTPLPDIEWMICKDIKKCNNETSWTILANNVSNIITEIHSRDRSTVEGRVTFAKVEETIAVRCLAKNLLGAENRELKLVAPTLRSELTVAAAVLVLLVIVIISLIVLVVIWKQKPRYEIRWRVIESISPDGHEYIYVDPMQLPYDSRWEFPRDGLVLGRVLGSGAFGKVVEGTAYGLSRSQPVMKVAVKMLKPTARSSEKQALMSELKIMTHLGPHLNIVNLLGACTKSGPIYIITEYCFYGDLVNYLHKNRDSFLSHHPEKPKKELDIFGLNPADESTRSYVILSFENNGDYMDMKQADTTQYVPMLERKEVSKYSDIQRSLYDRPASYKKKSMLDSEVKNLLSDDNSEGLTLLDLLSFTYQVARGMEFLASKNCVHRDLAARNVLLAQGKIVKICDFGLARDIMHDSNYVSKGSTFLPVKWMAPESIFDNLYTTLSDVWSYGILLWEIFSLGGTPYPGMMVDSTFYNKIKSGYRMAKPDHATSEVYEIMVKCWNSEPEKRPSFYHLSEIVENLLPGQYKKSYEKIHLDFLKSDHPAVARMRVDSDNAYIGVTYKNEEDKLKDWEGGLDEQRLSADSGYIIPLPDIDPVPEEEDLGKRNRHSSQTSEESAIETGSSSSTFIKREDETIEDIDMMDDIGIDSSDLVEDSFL

CC(=O)NCCCC[C@@H]1NC(=O)[C@H](Cc2c[nH]c3c(C)cccc23)NC(=O)[C@H]([C@@H](C)O)NC(=O)[C@H](CC(N)=O)NC(=O)[C@@H](NC(C)=O)C(C)(C)SSC(C)(C)[C@@H](C(=O)N[C@@H](Cc2ccc(OCCN)cc2)C(=O)N[C@@H](Cc2ccc3ccccc3c2)C(=O)NC2(C(=O)N[C@@H](CCC(=O)O)C(=O)N[C@@H](CC(N)=O)C(=O)N[C@@H](Cc3cccnc3)C(=O)N(C)CC(N)=O)CCOCC2)NC1=O — fraction unbound (equilibrium dialysis; rabbit plasma; 1 µM): 28.2 ± 0.4%
Cc1ccc(OCC(=O)N(Cc2cccs2)c2ccn[nH]2)cc1 — micronucleated PCEs (in vivo micronucleus; Crl:CD-1(ICR) mice, female, bone marrow polychromatic erythrocytes; oral, 1500 mg/kg/day, 3 days): 0.03 ± 0.03%
N#[11C]c1ccc(-c2csc(NN=C3CCCC3)n2)cc1 — unchanged compound (radio-HPLC; C57BL/6 mouse, plasma; intravenous, 37 MBq, 15 min): 5.97% and 6%
C#Cc1c(F)ccc2cc(O)cc(-c3ncc4c(N5CC6CCC(C5)N6C(=O)OC(OC(=O)CCC)C5CCC5)nc(OC[C@@]56CCCN5C[C@H](F)C6)nc4c3F)c12 (stereo partly drawn) — compound remaining (chemical stability; simulated intestinal fluid; 1 µM, 30 min): 102%
COc1ccccc1-c1n[nH]c2nc(NC3CCN(C(=O)Cc4ccc(F)cc4F)CC3)ncc12 — relative abundance (bead binding, competition bead pull-down, refers to: LINJ.34.3160; Leishmania donovani axenic amastigote extract; 10 µM; reference: vehicle): 1
CSCC[C@H](NC(=O)CNC(=O)[C@H](CCCCN)NC(=O)[C@H](CC(C)C)NC(=O)[C@@H]1CCCN1C(=O)[C@H](CO)NC(=O)[C@H](Cc1c[nH]cn1)NC(=O)[C@H](Cc1c[nH]c2ccccc12)NC(=O)[C@H](CCCNC(=N)N)NC(=O)[C@H](CC(C)C)NC(=O)[C@H](CCCNC(=N)N)NC(=O)[C@H](Cc1c[nH]c2ccccc12)NC(=O)[C@H](CS)NC(=O)CCCCCNC(=O)CN1CCN(CC(=O)O)CCN(CC(=O)O)CCN(CC(=O)O)CC1)C(=O)O [copper-64 labelled] — tumour-to-muscle ratio (C57BL/6J mice, B16-F10 tumour; intravenous, 1.85 MBq, 2 h; reference: tumour over muscle): 10.8
CC[C@H](C)[C@H](NC(=O)[C@H](CO)NC(=O)[C@H](Cc1ccc(O)cc1)NC(=O)[C@H](Cc1ccc(O)cc1)NC(=O)[C@H](CC(N)=O)NC(=O)CNC(=O)[C@H](CO)NC(=O)[C@H](Cc1ccc(O)cc1)NC(=O)[C@H](CO)NC(=O)[C@H](CO)NC(=O)[C@H](CC(N)=O)NC(=O)COCCOCCNC(=O)CN1CCN(CC(=O)O)CCN(CC(=O)O)CCN(CC(=O)O)CC1)C(=O)N[C@@H](CC(C)C)C(N)=O [copper-64 labelled] — maximum metastasis uptake (dynamic PET; tamoxifen-induced PDAC mouse model, metastases; 0.4 min, CLDN4-expressing tumours): 27.1 %IA/cc
CCCCCCCCCCCCCCCC(=O)OCC(CSC[C@H](N)C(=O)N[C@@H](CO)C(=O)N[C@@H](CCCCN)C(=O)N[C@@H](CCCCN)C(=O)N[C@@H](CCCCN)C(=O)N[C@@H](CCCCN)C(=O)NCCCCCC(=O)N[C@@H](CCCCN)C(=O)N[C@@H](CC(C)C)C(=O)N[C@H](C(=O)N[C@@H](Cc1ccccc1)C(=O)N[C@@H](Cc1ccccc1)C(=O)N[C@@H](Cc1ccc2ccccc2c1)C(=O)O)C(C)C)OC(=O)CCCCCCCCCCCCCCC (stereo partly drawn) — serum AST (C57BL/6J mouse, serum; intraperitoneal, dose not given): 93 U/L and 92.6 U/L and 116 U/L and 117 U/L and 93.7 U/L
COc1ccc(-n2cc(C(=O)N3C[C@]4(OC(=O)c5ccccc5NC(C)=O)CC[C@H](OC)[C@@]56[C@@H]4C[C@@H]([C@@H]35)[C@@]3(O)C[C@H](OC)[C@H]4C[C@@H]6[C@]3(O)[C@H]4OC)nn2)cc1 — plasma concentration (Sprague-Dawley rat, plasma; intravenous, 2 mg/kg, 0.083 h): 120 ng/mL
CC(C)(C)C(=O)OCOP(=O)(OCOC(=O)C(C)(C)C)C1CCCN(O)C1=O (stereo not drawn) — Log10TGI (LOX IMVI): -4.91 log M
O=C1NC(=O)c2c1c1cc(F)c[n+]3c1c1c2c2cc(O)ccc2[n]1[Ru-4]312([N]=C=S)[S+]3CC[S+]1CC[S+]2CC3 (stereo not drawn) — remaining activity (PDGFRA (Homo sapiens, UniProt P16234); enzyme activity; 100 nM, human enzyme, added: 10 µM ATP; reference: untreated): 113%
NC1CCN(C(=O)Oc2ccc(C3CCCC4(C3)OOC3(O4)C4CC5CC(C4)CC3C5)cc2)CC1 (racemic) — clearance (male Sprague-Dawley rat, plasma; intravenous, 10 mg/kg): 57.3 mL/min/kg
O=C1NC2(CC2)COc2ncc(F)cc2[C@H]2COCCN2c2ccn3ncc1c3n2 — organ weight (Sprague-Dawley rat, female, brain; oral, 2.5 mg/kg/day, 4 weeks): 1.96 ± 0.084 g
CN1Cc2cc(Cl)ccc2-n2c(nnc2C2CCN(c3cccc([18F])n3)CC2)C1 — tissue uptake (C57BL/6 mouse male, testis; intravenous, 3.7 MBq, 60 min): 1.54 ± 1.51 %ID/g
C=CC(=O)Nc1cccc(Cn2ncc3cnc(Nc4cnn(CCOC)c4)nc32)c1 — blood MCV (female Sprague-Dawley rat; oral, 180 mg/kg/day, day 28, 28-day subacute toxicity): 60.7 ± 2.74 fL
CC[C@H](C)[C@H](NC(=O)[C@H](CCCCN)NC(=O)CNC(=O)[C@H](CC(C)C)NC(=O)[C@H](Cc1ccccc1)NC(=O)[C@H](CCCCN)NC(=O)[C@H](CO)NC(=O)[C@H](Cc1ccccc1)NC(=O)[C@H](Cc1c[nH]c2ccccc12)NC(=O)[C@H](CCC(N)=O)NC(=O)[C@@H](NC(=O)[C@H](Cc1ccccc1)NC(=O)CCCCCNC(=O)CN1CCN(CC(=O)O)CCN(CC(=O)O)CCN(CC(=O)O)CC1)C(C)C)C(=O)N[C@@H](CCC(=O)O)C(=O)N1CCC[C@H]1C(=O)N[C@@H](CC(=O)O)C(=O)N[C@H](C(=O)N[C@@H](CO)C(=O)N[C@@H](CCC(N)=O)C(=O)N[C@H](C(=O)N[C@@H](CCC(N)=O)C(=O)N[C@@H](CC(=O)O)C(=O)N1CCC[C@H]1C(=O)N[C@@H](CC(N)=O)C(=O)N[C@@H](CC(=O)O)C(=O)N[C@@H](CCC(N)=O)C(=O)N[C@@H](Cc1ccc(O)cc1)C(=O)N[C@@H](CCC(=O)O)C(=O)N1CCC[C@H]1C(=O)N[C@@H](Cc1ccccc1)C(=O)O)C(C)C)C(C)C [copper-64 labelled] — tissue uptake (BALB/c mice, male, CT26 tumour-bearing, brain; 2 h, anti-PD1 plus anti-CTLA4 treated): 0.12 ± 0.01 %ID/g
N=C(N)NCCC[C@@H](NC(=O)[C@H](N)Cc1c[nH]c2ccccc12)C(=O)N[C@H](CCCCN)C(=O)N[C@H](Cc1c[nH]c2ccccc12)C(=O)N[C@H](CCCNC(=N)N)C(=O)N[C@H](CCCCN)C(=O)N[C@H](Cc1c[nH]c2ccccc12)C(=O)N[C@H](CCCNC(=N)N)C(=O)N[C@H](CCCCN)C(=O)N[C@H](Cc1c[nH]c2ccccc12)C(=O)N[C@H](CCCNC(=N)N)C(=O)N[C@H](CCCCN)C(N)=O — survival (mouse; intraperitoneal, 20 mg/kg single dose, day 6): 100%
CN(C)[C@H]1C[C@@]23CC[C@@]4(O2)C(=CC[C@]2(C)[C@@H](c5ccc6ccncc6c5)CC[C@H]24)C=C3[C@@H](O)[C@@H]1O — inhibition (LATS1 (Homo sapiens, UniProt O95835); ATP probe labelling, inhibitor, KiNativ profiling; 1 µM): -6.5%

Some of these lines once more:
COc1ccc(-n2cc(C(=O)N3C[C@]4(OC(=O)c5ccccc5NC(C)=O)CC[C@H](OC)[C@@]56[C@@H]4C[C@@H]([C@@H]35)[C@@]3(O)C[C@H](OC)[C@H]4C[C@@H]6[C@]3(O)[C@H]4OC)nn2)cc1 — plasma concentration (Sprague-Dawley rat, plasma; intravenous, 2 mg/kg, 0.083 h): 120 ng/mL
CC[C@H](C)[C@H](NC(=O)[C@H](CO)NC(=O)[C@H](Cc1ccc(O)cc1)NC(=O)[C@H](Cc1ccc(O)cc1)NC(=O)[C@H](CC(N)=O)NC(=O)CNC(=O)[C@H](CO)NC(=O)[C@H](Cc1ccc(O)cc1)NC(=O)[C@H](CO)NC(=O)[C@H](CO)NC(=O)[C@H](CC(N)=O)NC(=O)COCCOCCNC(=O)CN1CCN(CC(=O)O)CCN(CC(=O)O)CCN(CC(=O)O)CC1)C(=O)N[C@@H](CC(C)C)C(N)=O [copper-64 labelled] — maximum metastasis uptake (dynamic PET; tamoxifen-induced PDAC mouse model, metastases; 0.4 min, CLDN4-expressing tumours): 27.1 %IA/cc
